Measured values pooled from the literature.
Compare with care: the assays were run in different laboratories. Values joined by “and” are separate records of one study, mostly repeats; a detail may differ. ± gives the spread as reported.

| SMILES | tested on | assay | test system | conditions | scale | measurement | result |
| --- | --- | --- | --- | --- | --- | --- | --- |
| CC(C)(O)c1ccn2c(-c3ccc(F)c(-c4ccc(F)cc4C#N)c3)cnc2c1F | GABAA receptor α1 R214C human | cell surface biotinylation | HEK-293T | 5 µM, 24 h, added: hispidulin 10 µM | relative to: DMSO | surface expression | 1.75 ± 0.33 fold |
| Cc1ncsc1-c1ccc(C(C)NC(=O)C2CC(O)CN2C(=O)C(NC(=O)CCCCCCCCCCN2CCCC(Nc3ncc(Cl)c(Nc4ccccc4S(=O)(=O)C(C)C)n3)C2)C(C)(C)C)cc1 (centres unmarked) | 22Rv1 | RNA-seq, measured: UACA mRNA | – | concentration not given | relative to: DMSO | log2 fold change | -1.03 |
| C[n+]1ccc(/C=N/NC(=O)c2cccc(C(=O)N/N=C/c3cc[n+](C)c4ccccc34)n2)c2ccccc21 | hairpin duplex DNA | UV melting | – | 1 molar equivalents, DNA 3 µM | – | ΔTm | 0.5 °C |
| Nc1ncc(-c2cc(-c3cnn(CC(F)(F)F)c3)ncc2F)nc1C(=O)NC1CNCC(F)C1 (centres unmarked) | ACVR2B | KINOMEscan | – | 1 µM | relative to: DMSO control | remaining binding | 84% |
| Fc1ccc(Nc2nc(NC3CCCCC3)c3cc(Br)ccc3n2)cc1F | β2AR/β1AR ECL2 chimera | β-arrestin2 recruitment, antagonist, BRET | – | – | relative to: isoprenaline maximal response | maximal inhibition | 1.2% |
| CC(C)(C)c1ccc(C(=O)N2Cc3cccnc3Nc3ccccc32)cc1 | IDH1 R132H human | 2-HG production, RapidFire mass spectrometry | MOG-G-UVW overexpressing IDH1 R132H | – | – | IC50 | 1.27 µM |
| C[n+]1cc(NC(=O)c2ccc3ccc4ccc(C(=O)Nc5cc6ccccc6[n+](C)c5)nc4c3n2)cc2ccccc21 | hairpin duplex DNA | UV melting | – | 2 molar equivalents, DNA 3 µM | – | ΔTm | 0.6 °C |
| COC1CN([C@H]2CC[C@H]([C@@]3(C)Oc4c(Cl)cc(C(=O)NCc5c(SC)cc(C)[nH]c5=O)c(C)c4O3)CC2)C1 | – | RNA-seq, measured: HPGD mouse homolog | mouse, HT-1376 xenograft, whole blood | dose not given | relative to: vehicle | log2 fold change | 0.868 |
| C=C(NC(=O)c1csc(-c2nc3c(cc2O)-c2nc(cs2)C(=O)NC(C(C)O)C(=O)NC(=C(C)OC)c2nc(cs2)C(=O)NC2c4nc(cs4)C(=O)NC(COC(=O)c4c5c6c(cccc6n4O)COC(=O)C(OC4CC(C)(O)C(N(C)C)C(C)O4)C2OC5)c2nc-3cs2)n1)C(N)=O (centres unmarked) | – | – | cynomolgus monkey, plasma | intravenous, 1 mg/kg, single dose, infusion | – | AUC(0-inf) | 8280 ng·h/mL |
| CC(=O)c1cnc(N)nc1N1CC[C@H]1c1nn2ccc(Cl)c2c(=O)n1-c1ccccc1 | PI3Kδ | KiNativ | monkey white blood cell lysate | 1 µM | – | binding | > 90% |
| Fc1ccc(Nc2nc(NC3CCCCC3)c3ccccc3n2)cc1F | β2AR/β1AR TM7 chimera | β-arrestin2 recruitment, antagonist, BRET | – | added: isoprenaline 1 µM | – | pIC50 | 5.9 |
| Cc1cn(CC(=O)N(CC(=O)N[C@H]2COC[C@@H]2N(CC(=O)NCCOCCOCC(N)=O)C(=O)Cn2cnc3c(N)ncnc32)[C@H]2COC[C@@H]2NC(=O)CN(C(=O)Cn2cnc3c(N)ncnc32)[C@H]2COC[C@@H]2NC(=O)CN(C(=O)Cn2cnc3c(=O)[nH]c(N)nc32)[C@H]2COC[C@@H]2NC(=O)CN(C(=O)Cn2cc(C)c(=O)[nH]c2=O)[C@H]2COC[C@@H]2NC(=O)CN(C(=O)Cn2cnc3c(=O)[nH]c(N)nc32)[C@H]2COC[C@@H]2NC(=O)CN(C(=O)Cn2cc(C)c(=O)[nH]c2=O)[C@H]2COC[C@@H]2NC(=O)CN(C(=O)Cn2cnc3c(N)ncnc32)[C@H]2COC[C@@H]2NC(=O)CN(C(=O)Cn2cnc3c(=O)[nH]c(N)nc32)[C@H]2COC[C@@H]2N)c(=O)[nH]c1=O | mismatched DNA TC | duplex formation, UV melting | – | – | relative to: complementary DNA | ΔTm | -26.2 °C |
| C=CC(=O)Nc1cccc(Cn2ncc3cnc(Nc4cnn(CCOC)c4)nc32)c1 | PIK3CG human | binding, KINOMEscan | – | 100 nM | lower = stronger binding | percent of control | 26% |
| Fc1ccc(Nc2nc(NC3CCCCC3)c3cc(C(F)(F)F)ccc3n2)cc1F | β2AR/β1AR TM7 chimera | β-arrestin2 recruitment, antagonist, BRET | – | – | relative to: isoprenaline maximal response | maximal inhibition | -1.2% |
| c1ccc(-c2n[nH]cc2-c2ccnc3ccccc23)nc1 | MPS1 (Candida albicans) | kinase binding, MIB/MS competition | Candida albicans lysate | 10 µM | relative to: DMSO | log2 fold change | 0.49 |
| C=CC(=O)N1[C@H](c2ccc3c(c2)OCO3)c2[nH]c3ccccc3c2C[C@@H]1C(=O)N1CCN(C)CC1 | human cyclin E1 N112C-3xFLAG:CDK2 | co-IP with TMT proteomics, measured: HNRNPA2B1 | – | concentration not given, P22626 | relative to: wild type DMSO | relative co-enrichment | 165% |
| C=CC(=O)N1[C@@H](c2ccc3c(c2)OCO3)c2[nH]c3ccccc3c2C[C@H]1C(=O)NC1CC1 | FAM213A Cys85 human | cysteine IA-DTB labelling, covalent inhibitor, MS-ABPP | 22Rv1 | 20 µM, 3 h | – | inhibition | 78% and 76% |
